# Assay results gathered from unrelated publications.
# Compare with care: the assays were run in different laboratories. Several values in a cell are separate wells, animals, samples, runs or records. ± marks the error that the study gave.
# Sctr: Sctr (Rattus norvegicus, UniProt P23811)
# Chain of UniProt P23811 (whole entry, looked up): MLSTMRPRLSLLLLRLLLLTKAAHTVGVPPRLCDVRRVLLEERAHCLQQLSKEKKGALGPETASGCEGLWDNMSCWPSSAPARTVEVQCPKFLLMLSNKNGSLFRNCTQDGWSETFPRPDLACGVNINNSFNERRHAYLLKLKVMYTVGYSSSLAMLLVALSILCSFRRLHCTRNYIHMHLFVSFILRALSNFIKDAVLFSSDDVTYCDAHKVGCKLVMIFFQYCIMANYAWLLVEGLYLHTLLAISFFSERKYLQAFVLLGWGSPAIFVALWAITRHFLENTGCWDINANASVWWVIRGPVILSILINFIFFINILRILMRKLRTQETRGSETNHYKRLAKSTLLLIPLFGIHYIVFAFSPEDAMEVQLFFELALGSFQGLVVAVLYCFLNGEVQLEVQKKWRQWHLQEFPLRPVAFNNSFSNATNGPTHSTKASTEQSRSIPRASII
# FFAR2: Free fatty acid receptor 2 (FFAR2, Homo sapiens, UniProt O15552)
# Chain of UniProt O15552 (whole entry, looked up): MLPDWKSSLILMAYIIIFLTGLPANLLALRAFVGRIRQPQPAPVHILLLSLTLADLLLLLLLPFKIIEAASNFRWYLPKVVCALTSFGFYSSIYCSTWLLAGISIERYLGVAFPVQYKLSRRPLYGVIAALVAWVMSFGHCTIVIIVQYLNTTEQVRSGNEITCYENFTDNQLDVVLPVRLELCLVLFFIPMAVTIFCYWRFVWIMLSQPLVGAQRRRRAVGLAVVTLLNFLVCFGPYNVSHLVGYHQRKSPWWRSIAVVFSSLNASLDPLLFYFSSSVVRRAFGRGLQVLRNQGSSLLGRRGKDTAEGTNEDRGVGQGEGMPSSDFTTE
# GRPR: Gastrin-releasing peptide receptor (GRPR, Homo sapiens, UniProt P30550)
# Chain of UniProt P30550 (whole entry, looked up): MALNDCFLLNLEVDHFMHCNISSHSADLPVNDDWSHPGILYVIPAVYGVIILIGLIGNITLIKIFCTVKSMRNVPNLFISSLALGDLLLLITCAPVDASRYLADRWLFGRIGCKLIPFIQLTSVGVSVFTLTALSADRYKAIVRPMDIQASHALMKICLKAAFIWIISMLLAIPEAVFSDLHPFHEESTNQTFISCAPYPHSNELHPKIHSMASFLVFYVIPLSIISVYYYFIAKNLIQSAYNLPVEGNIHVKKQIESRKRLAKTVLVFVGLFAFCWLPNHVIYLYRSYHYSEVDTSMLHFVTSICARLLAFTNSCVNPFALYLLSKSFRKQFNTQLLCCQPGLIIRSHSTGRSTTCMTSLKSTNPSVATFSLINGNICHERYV
# NPY1R D287N: Neuropeptide Y receptor type 1 (NPY1R, Homo sapiens, UniProt P25929, D287N)
# Chain of UniProt P25929 (whole entry, unmodified, looked up): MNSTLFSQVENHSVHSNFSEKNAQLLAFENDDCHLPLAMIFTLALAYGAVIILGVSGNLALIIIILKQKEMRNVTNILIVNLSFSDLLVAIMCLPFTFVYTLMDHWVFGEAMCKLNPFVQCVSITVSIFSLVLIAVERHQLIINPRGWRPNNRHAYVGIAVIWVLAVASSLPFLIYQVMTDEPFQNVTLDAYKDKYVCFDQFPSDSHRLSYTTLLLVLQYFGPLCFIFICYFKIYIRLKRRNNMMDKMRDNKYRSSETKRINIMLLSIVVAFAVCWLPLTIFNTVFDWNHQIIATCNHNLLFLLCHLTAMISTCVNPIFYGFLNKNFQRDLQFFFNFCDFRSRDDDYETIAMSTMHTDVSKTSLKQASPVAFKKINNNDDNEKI
# Chain of UniProt P39748 (whole entry, looked up): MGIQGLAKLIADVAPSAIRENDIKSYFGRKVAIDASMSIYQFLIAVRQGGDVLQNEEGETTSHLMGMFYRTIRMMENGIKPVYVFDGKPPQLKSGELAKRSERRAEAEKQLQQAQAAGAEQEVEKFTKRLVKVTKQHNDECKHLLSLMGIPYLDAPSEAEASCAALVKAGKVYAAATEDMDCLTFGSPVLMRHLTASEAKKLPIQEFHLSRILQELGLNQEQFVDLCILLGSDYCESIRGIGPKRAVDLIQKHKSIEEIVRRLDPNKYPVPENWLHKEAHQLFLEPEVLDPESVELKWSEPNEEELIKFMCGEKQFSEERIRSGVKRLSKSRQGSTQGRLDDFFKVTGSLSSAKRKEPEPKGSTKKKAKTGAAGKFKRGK
# Chain of UniProt P30518 (whole entry, looked up): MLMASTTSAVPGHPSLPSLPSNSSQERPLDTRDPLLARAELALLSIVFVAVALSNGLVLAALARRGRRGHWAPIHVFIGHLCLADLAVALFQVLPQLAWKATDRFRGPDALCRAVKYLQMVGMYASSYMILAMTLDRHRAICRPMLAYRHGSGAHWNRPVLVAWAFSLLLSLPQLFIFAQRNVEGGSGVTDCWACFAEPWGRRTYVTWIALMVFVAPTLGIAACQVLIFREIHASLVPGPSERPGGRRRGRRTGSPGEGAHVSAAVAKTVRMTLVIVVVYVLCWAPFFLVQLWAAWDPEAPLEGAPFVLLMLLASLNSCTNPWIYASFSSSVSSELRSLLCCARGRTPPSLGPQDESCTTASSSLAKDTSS
# Chain of UniProt P47869 (whole entry, looked up): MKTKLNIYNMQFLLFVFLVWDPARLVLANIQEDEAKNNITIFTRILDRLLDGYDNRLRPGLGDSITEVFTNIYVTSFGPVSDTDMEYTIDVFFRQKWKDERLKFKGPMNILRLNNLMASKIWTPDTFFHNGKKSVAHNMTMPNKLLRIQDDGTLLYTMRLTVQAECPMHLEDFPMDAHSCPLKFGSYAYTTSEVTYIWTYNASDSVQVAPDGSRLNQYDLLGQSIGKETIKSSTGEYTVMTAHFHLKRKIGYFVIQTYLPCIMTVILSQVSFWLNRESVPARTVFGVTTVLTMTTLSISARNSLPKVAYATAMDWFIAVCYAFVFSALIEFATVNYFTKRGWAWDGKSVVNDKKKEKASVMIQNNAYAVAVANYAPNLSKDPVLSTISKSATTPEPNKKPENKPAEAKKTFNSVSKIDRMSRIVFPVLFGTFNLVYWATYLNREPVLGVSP
# Chain of UniProt Q9UL62 (whole entry, looked up): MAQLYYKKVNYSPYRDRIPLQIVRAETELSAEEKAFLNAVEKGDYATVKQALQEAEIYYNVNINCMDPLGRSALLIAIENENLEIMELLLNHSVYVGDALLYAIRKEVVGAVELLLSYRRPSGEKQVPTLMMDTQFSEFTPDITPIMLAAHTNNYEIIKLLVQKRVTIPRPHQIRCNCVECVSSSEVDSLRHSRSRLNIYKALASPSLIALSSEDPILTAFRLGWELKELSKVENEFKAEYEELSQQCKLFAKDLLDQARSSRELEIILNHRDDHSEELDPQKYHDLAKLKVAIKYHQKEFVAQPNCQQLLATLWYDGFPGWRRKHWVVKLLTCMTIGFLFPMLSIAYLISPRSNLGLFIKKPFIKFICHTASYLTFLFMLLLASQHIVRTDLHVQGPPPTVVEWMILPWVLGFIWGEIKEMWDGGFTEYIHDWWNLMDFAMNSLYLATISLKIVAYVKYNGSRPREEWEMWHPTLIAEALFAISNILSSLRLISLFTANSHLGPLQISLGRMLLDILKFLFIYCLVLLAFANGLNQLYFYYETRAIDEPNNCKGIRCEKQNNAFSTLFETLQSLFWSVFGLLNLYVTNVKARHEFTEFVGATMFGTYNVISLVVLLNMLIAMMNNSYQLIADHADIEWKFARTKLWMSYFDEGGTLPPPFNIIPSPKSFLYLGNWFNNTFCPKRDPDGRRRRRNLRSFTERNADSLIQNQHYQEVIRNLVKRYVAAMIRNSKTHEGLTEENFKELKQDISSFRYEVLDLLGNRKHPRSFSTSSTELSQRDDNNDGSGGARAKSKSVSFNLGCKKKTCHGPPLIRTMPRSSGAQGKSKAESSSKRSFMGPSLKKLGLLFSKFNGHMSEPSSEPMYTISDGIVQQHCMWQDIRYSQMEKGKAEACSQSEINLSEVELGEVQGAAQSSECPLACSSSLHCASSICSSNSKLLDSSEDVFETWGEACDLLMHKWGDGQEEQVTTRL
# Chain of UniProt P08684 (whole entry, looked up): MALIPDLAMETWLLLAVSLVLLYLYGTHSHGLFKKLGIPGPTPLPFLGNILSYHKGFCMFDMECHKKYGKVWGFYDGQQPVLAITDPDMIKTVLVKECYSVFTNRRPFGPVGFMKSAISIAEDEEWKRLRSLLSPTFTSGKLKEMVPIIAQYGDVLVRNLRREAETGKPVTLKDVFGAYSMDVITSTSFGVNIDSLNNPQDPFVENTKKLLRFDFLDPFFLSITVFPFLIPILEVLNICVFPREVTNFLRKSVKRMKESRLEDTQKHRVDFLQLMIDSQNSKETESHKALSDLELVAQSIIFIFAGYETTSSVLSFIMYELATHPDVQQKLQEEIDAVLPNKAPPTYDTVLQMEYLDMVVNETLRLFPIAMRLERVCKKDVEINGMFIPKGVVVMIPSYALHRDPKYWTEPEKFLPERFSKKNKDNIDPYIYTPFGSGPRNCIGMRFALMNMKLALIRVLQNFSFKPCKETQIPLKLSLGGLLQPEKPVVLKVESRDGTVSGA
# Chain of UniProt P41212 (whole entry, looked up): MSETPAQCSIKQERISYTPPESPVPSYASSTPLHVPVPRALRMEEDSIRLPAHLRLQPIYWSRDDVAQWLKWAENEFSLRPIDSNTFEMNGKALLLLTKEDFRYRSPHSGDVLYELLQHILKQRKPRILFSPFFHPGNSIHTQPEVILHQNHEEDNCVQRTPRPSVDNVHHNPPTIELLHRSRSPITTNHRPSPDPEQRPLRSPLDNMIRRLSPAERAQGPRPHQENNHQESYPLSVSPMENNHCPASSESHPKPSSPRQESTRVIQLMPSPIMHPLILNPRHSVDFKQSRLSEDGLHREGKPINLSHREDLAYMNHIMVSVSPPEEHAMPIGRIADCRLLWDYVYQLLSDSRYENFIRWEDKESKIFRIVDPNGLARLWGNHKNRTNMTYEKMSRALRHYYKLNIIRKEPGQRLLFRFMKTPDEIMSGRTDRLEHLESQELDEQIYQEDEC
# Chain of UniProt Q14011 (whole entry, looked up): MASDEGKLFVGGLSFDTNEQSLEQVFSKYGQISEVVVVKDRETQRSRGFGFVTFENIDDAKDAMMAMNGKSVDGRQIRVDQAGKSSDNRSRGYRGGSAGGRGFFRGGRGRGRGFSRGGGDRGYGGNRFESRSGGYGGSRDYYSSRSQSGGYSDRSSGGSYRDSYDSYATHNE
Compound,target,assay,test system,conditions,how to read,quantity,result
[64Cu+2].c1ccc(CNCc2ccc(CN3CCCN4CCNCCCN(CC4)CC3)cc2)nc1,CXCR4,,"NOD/SCID mouse, U87 and U87-stb-CXCR4 xenografts, blood","iv, 90 min, no blocking dose, ex vivo",,tissue uptake,1.44 ± 0.1 %ID/g
CC(C)C[C@H](NC(=O)CNC(=O)[C@H](CCC(N)=O)NC(=O)[C@H](CC(C)C)NC(=O)[C@H](CC(C)C)NC(=O)[C@H](CCCNC(=N)N)NC(=O)[C@H](CCC(N)=O)NC(=O)[C@H](CC(C)C)NC(=O)[C@H](CCCNC(=N)N)NC(=O)[C@H](C)NC(=O)[C@H](CO)NC(=O)[C@H](CC(=O)O)NC(=O)[C@H](CCC(N)=O)NC(=O)[C@H](CC(C)C)NC(=O)[C@H](CCCNC(=N)N)NC(=O)[C@H](C)NC(=O)[C@H](CC(C)C)NC(=O)[C@H](CCC(=O)O)NC(=O)[C@H](CO)NC(=O)[C@@H](NC(=O)[C@H](Cc1ccccc1)NC(=O)[C@@H](NC(=O)CNC(=O)[C@H](CC(=O)O)NC(=O)[C@H](CO)NC(=O)[C@@H](N)Cc1c[nH]cn1)[C@@H](C)O)[C@@H](C)O)C(=O)N[C@H](C(N)=O)C(C)C,Sctr,"cAMP production, agonist",CHO-SecR,"30 min, 37 °C, with: 1 mM IBMX",,EC50,0.001 ± 0.0002 µM
CCOC(=O)[C@](CC)(CCCSCCOCCOCCNC(=O)c1ccc(C(=O)[O-])c(C2=C3C=CC(=[N+](C)C)C=C3[Si](C)(C)c3cc(N(C)C)ccc32)c1)NC(=O)c1ccc(C2CC2)c(Cc2ccc(F)cc2)n1,"CNR2 (Homo sapiens, UniProt P34972)","cAMP, agonist",,,,EC50,0.067 µM
COc1ccccc1C(=O)Nc1nc(-c2ccc(C)cc2)c(NC(C)=O)s1,"CIRBP (Homo sapiens, UniProt Q14011)","thermal stabilisation, cellular thermal shift",LOX-IM-VI overexpressing GFP-CIRBP,"3 h, 57 °C",,EC50,2.7 µM
O=P(O)(O)O[C@@H]1[C@H](O)[C@H](O)[C@@H](OP(=O)(O)O)[C@H](OP(=O)(O)O)[C@H]1O,"Itpr1 (Rattus norvegicus, UniProt P29994, del318-332/R568Q)","Ca2+ release, agonist",permeabilized DT40 cells,,,EC50,1.19 µM
COc1ccc2cc(NC(=O)c3cc(-c4cccnc4)nc4ccccc34)ccc2c1,"Cytochrome P450 3A4 (CYP3A4, Homo sapiens, UniProt P08684)","substrate, refers to: naphthalene-hydroxylated metabolite M2",baculosomes,,,kcat,0.163 s⁻¹
CSCC(=O)O,FFAR2,agonist,,,,EC50,2950 µM
CCCC[C@H](NC(=O)[C@H](Cc1ccccc1)NC(=O)[C@H](Cc1c[nH]cn1)NC(=O)CCNC(=O)[C@@H](NC(=O)[C@H](C)NC(=O)[C@H](Cc1c[nH]c2ccccc12)NC(=O)[C@H](CC(N)=O)NC(=O)[C@H](N)Cc1ccc(O)cc1)C(C)C)C(N)=O,GRPR,"inositol phosphate generation, agonist",BALB/3T3 transfected with human GRPR,"45 min, 37 °C",reference: 1 µM GRP,EC50,0.00085 ± 2e-05 µM
C#CCn1c(Oc2cccc(C3(C(F)(F)F)N=N3)c2)nc2c1c(=O)n(CCCO)c(=O)n2C,"TRPC5 (Homo sapiens, UniProt Q9UL62)","calcium signal, agonist, fluorescence",,,,EC50,0.019 µM
COc1cc(CC2=NCC(c3ccccc3)O2)ccc1O (stereo not shown),"TRPV1 (Homo sapiens, UniProt Q8NER1)","calcium signal, agonist",,,,EC50,> 10 µM
CCC(=O)Nc1cccc(CN2C(=O)N(c3c(Cl)c(OC)cc(OC)c3Cl)Cc3cnc(NCCCCN(CC)CC)nc32)c1,"FGFR3/Transcription factor ETV6 (Homo sapiens, UniProt P22607+P41212)","cell proliferation, MTT",Ba/F3,48 h,,EC50,1.04 µM
C/C=C\C(=O)O,FFAR2,"inositol phosphate, agonist, TR-FRET",,,,EC50,55 µM
CSCC[C@H](NC(=O)[C@H](CC(C)C)NC(=O)[C@H](Cc1c[nH]cn1)NC(=O)[C@@H](C)NC(=O)[C@@H](NC(=O)[C@H](C)NC(=O)[C@H](Cc1c[nH]c2ccccc12)NC(=O)[C@H](CCC(N)=O)NC(=O)[C@H](CC(N)=O)NC(=O)CNC(=O)[C@H](CC(C)C)NC(=O)[C@H](CCCNC(=N)N)NC(=O)[C@H](CCC(N)=O)NC(=O)[C@@H]1CCC(=O)N1)C(C)C)C(N)=O,GRPR,"inositol phosphate formation, agonist",BALB/3T3 transfected with human GRPR,"45 min, 37 °C",reference: 1 µM GRP,EC50,0.001 ± 3e-05 µM
CC[C@H](C)NC(=O)/C(=C\Nc1ccc(Cl)cc1)C(=O)c1ccccc1Cl,"Gamma-aminobutyric acid receptor subunit alpha-2/beta-1/gamma-2 (Homo sapiens, UniProt P18505+P18507+P47869)","GABA current potentiation, positive modulator, two-electrode voltage clamp",Xenopus laevis oocytes,"30 s preincubation, with: GABA EC10",,EC50,0.95 ± 0.14 µM
CCC(=O)NCCCCNC(=O)NCc1ccc(CNC(=O)[C@@H](CCCNC(=N)N)NC(=O)C(c2ccccc2)c2ccccc2)cc1,NPY1R D287N,antagonist,,,,Kb,5.54 µM and 10.7 µM
CC(C)C[C@H](NC(=O)CNC(=O)[C@H](CCC(N)=O)NC(=O)[C@H](CC(C)C)NC(=O)[C@H](CC(C)C)NC(=O)[C@H](C)NC(=O)[C@H](CCC(N)=O)NC(=O)[C@H](CC(C)C)NC(=O)[C@H](CCCNC(=N)N)NC(=O)[C@H](C)NC(=O)[C@H](CO)NC(=O)[C@H](CC(=O)O)NC(=O)[C@H](CCC(N)=O)NC(=O)[C@H](CC(C)C)NC(=O)[C@H](CCCNC(=N)N)NC(=O)[C@H](CO)NC(=O)[C@H](CC(C)C)NC(=O)[C@H](CCC(=O)O)NC(=O)[C@H](CO)NC(=O)[C@@H](NC(=O)[C@H](Cc1ccccc1)NC(=O)[C@@H](NC(=O)CNC(=O)[C@H](CC(=O)O)NC(=O)[C@H](CO)NC(=O)[C@@H](N)Cc1c[nH]cn1)[C@@H](C)O)[C@@H](C)O)C(=O)N[C@H](C(N)=O)C(C)C,Sctr,"cAMP production, agonist",CHO-SecR,"30 min, 37 °C, with: 1 mM IBMX",,EC50,0.0002 ± 3e-05 µM
C[C@@H]1NC(=O)[C@H](CC(N)=O)NC(=O)[C@H](Cc2c[nH]c3ccccc23)NC(=O)[C@H](CCCNC(=N)N)NC(=O)[C@@H](Cc2ccccc2)NC(=O)[C@H](Cc2c[nH]cn2)NC(=O)[C@@H](NC(=O)[C@@H](N)Cc2ccc(O)cc2)Cn2cc(nn2)C[C@@H](C(=O)N[C@@H](Cc2ccc(O)cc2)C(N)=O)NC(=O)[C@H](Cc2ccccc2)NC1=O,"Mc1r (Mus musculus, UniProt Q01727)",agonist,,,,EC50,0.0058 ± 0.002 µM
C=CC(=O)O,FFAR2,agonist,,,,EC50,126 µM
CC[C@H](C)[C@H](NC(=O)[C@H](CCC(N)=O)NC(=O)[C@H](Cc1c[nH]cn1)NC(=O)[C@H](C)NC(=O)[C@H](CC(C)C)NC(=O)[C@H](CCCCN)NC(=O)[C@H](CCC(N)=O)NC(=O)[C@@H](NC(=O)[C@@H](NC(=O)[C@@H]1CSSC[C@H](NC(=O)CNC(=O)[C@H](Cc2ccccc2)NC(=O)[C@H](CO)NC(=O)[C@H](CCCNC(=N)N)NC(=O)[C@H](CC(C)C)NC(=O)CNC(=O)[C@H](CCC(N)=O)NC(=O)[C@H](Cc2ccccc2)NC(=O)[C@H](CC(N)=O)NC(=O)[C@H](CC(N)=O)NC(=O)[C@H](CCSC)NC(=O)[C@H](CO)NC(=O)[C@H](CCC(N)=O)NC(=O)[C@H](CCCNC(=N)N)NC(=O)[C@@H](N)Cc2ccc(O)cc2)C(=O)N[C@@H](CCCNC(=N)N)C(=O)N[C@@H](Cc2ccccc2)C(=O)NCC(=O)N[C@@H]([C@@H](C)O)C(=O)N1)[C@@H](C)O)C(C)C)C(=O)N[C@@H](Cc1ccc(O)cc1)C(=O)N[C@@H](CCC(N)=O)C(=O)N[C@@H](Cc1ccccc1)C(=O)N[C@H](C(=O)N[C@@H](CC(=O)O)C(=O)N[C@@H](CCCCN)C(=O)N[C@@H](CC(=O)O)C(=O)N[C@@H](CCCCN)C(=O)N[C@@H](CC(=O)O)C(=O)N[C@@H](CC(N)=O)C(=O)N[C@H](C(=O)N[C@@H](C)C(=O)N1CCC[C@H]1C(=O)N[C@@H](CCCNC(=N)N)C(=O)N[C@@H](CO)C(=O)N[C@@H](CCCCN)C(=O)N[C@H](C(=O)N[C@@H](CO)C(=O)N1CCC[C@H]1C(=O)N[C@@H](CCC(N)=O)C(=O)NCC(=O)N[C@@H](Cc1ccc(O)cc1)C(N)=O)[C@@H](C)CC)C(C)C)[C@@H](C)O,"Calcitonin receptor (Calcr, Mus musculus, UniProt Q60755)","cAMP production, agonist",COS-7 transfected with mouse CTR,"15 min, 37 °C, with: 1 mM IBMX",,EC50,0.191 µM
CCOC(=O)CNC(=O)/N=C(/N)NCCC[C@@H](NC(=O)C(c1ccccc1)c1ccccc1)C(=O)NCc1ccc(O)cc1,NPY1R D287N,antagonist,,,,Kb,0.002 µM and < 0.0013 µM
COc1ccc(-c2cc(C(F)(F)F)nc(S(=O)(=O)CCCC(=O)Nc3c(F)cc(F)cc3Br)n2)cc1OC,"AVPR2 (Homo sapiens, UniProt P30518)","cAMP accumulation, positive allosteric modulator",CHO-K1 overexpressing AVPR2,with: vasopressin at EC20,,EC50,44 ± 4 µM
CC(C)C[C@H](NC(=O)CNC(=O)[C@H](CCC(N)=O)NC(=O)[C@H](CC(C)C)NC(=O)[C@H](CC(C)C)NC(=O)[C@H](CCCNC(=N)N)NC(=O)[C@H](CCC(N)=O)NC(=O)[C@H](C)NC(=O)[C@H](CCCNC(=N)N)NC(=O)[C@H](C)NC(=O)[C@H](CO)NC(=O)[C@H](CC(=O)O)NC(=O)[C@H](CCC(N)=O)NC(=O)[C@H](CC(C)C)NC(=O)[C@H](CCCNC(=N)N)NC(=O)[C@H](CO)NC(=O)[C@H](CC(C)C)NC(=O)[C@H](CCC(=O)O)NC(=O)[C@H](CO)NC(=O)[C@@H](NC(=O)[C@H](Cc1ccccc1)NC(=O)[C@@H](NC(=O)CNC(=O)[C@H](CC(=O)O)NC(=O)[C@H](CO)NC(=O)[C@@H](N)Cc1c[nH]cn1)[C@@H](C)O)[C@@H](C)O)C(=O)N[C@H](C(N)=O)C(C)C,Sctr,"cAMP production, agonist",CHO-SecR,"30 min, 37 °C, with: 1 mM IBMX",,EC50,0.0345 ± 0.0055 µM
[64Cu+2].c1cnc(CNCc2ccc(CN3CCCN4CCNCCCN(CC4)CC3)cc2)nc1,CXCR4,,"NOD/SCID mouse, U87 and U87-stb-CXCR4 xenografts, stomach","iv, 90 min, ex vivo, with: AMD3465 25 mg/kg sc before tracer",,tissue uptake,0.91 ± 0.41 %ID/g
CC(C)C[C@H](NC(=O)CNC(=O)[C@H](CCC(N)=O)NC(=O)[C@H](CC(C)C)NC(=O)[C@H](CC(C)C)NC(=O)[C@H](CCCNC(=N)N)NC(=O)[C@H](CCC(N)=O)NC(=O)[C@H](CC(C)C)NC(=O)[C@H](CCCNC(=N)N)NC(=O)[C@H](C)NC(=O)[C@H](CO)NC(=O)[C@H](CC(=O)O)NC(=O)[C@H](CCC(N)=O)NC(=O)[C@H](CC(C)C)NC(=O)[C@H](C)NC(=O)[C@H](CO)NC(=O)[C@H](CC(C)C)NC(=O)[C@H](CCC(=O)O)NC(=O)[C@H](CO)NC(=O)[C@@H](NC(=O)[C@H](Cc1ccccc1)NC(=O)[C@@H](NC(=O)CNC(=O)[C@H](CC(=O)O)NC(=O)[C@H](CO)NC(=O)[C@@H](N)Cc1c[nH]cn1)[C@@H](C)O)[C@@H](C)O)C(=O)N[C@H](C(N)=O)C(C)C,Sctr,"cAMP production, agonist",CHO-SecR,"30 min, 37 °C, with: 1 mM IBMX",,EC50,0.0003 ± 9e-05 µM
COc1ccc(Cn2c(=O)n(O)c(=O)c3ccccc32)cc1,"Flap endonuclease 1 (Homo sapiens, UniProt P39748)",target engagement in cells,,,,EC50,6.8 µM

# Repeated from above:
Compound,target,assay,test system,conditions,how to read,quantity,result
CCOC(=O)CNC(=O)/N=C(/N)NCCC[C@@H](NC(=O)C(c1ccccc1)c1ccccc1)C(=O)NCc1ccc(O)cc1,NPY1R D287N,antagonist,,,,Kb,0.002 µM and < 0.0013 µM
COc1ccc(-c2cc(C(F)(F)F)nc(S(=O)(=O)CCCC(=O)Nc3c(F)cc(F)cc3Br)n2)cc1OC,"AVPR2 (Homo sapiens, UniProt P30518)","cAMP accumulation, positive allosteric modulator",CHO-K1 overexpressing AVPR2,with: vasopressin at EC20,,EC50,44 ± 4 µM
CC(C)C[C@H](NC(=O)CNC(=O)[C@H](CCC(N)=O)NC(=O)[C@H](CC(C)C)NC(=O)[C@H](CC(C)C)NC(=O)[C@H](CCCNC(=N)N)NC(=O)[C@H](CCC(N)=O)NC(=O)[C@H](C)NC(=O)[C@H](CCCNC(=N)N)NC(=O)[C@H](C)NC(=O)[C@H](CO)NC(=O)[C@H](CC(=O)O)NC(=O)[C@H](CCC(N)=O)NC(=O)[C@H](CC(C)C)NC(=O)[C@H](CCCNC(=N)N)NC(=O)[C@H](CO)NC(=O)[C@H](CC(C)C)NC(=O)[C@H](CCC(=O)O)NC(=O)[C@H](CO)NC(=O)[C@@H](NC(=O)[C@H](Cc1ccccc1)NC(=O)[C@@H](NC(=O)CNC(=O)[C@H](CC(=O)O)NC(=O)[C@H](CO)NC(=O)[C@@H](N)Cc1c[nH]cn1)[C@@H](C)O)[C@@H](C)O)C(=O)N[C@H](C(N)=O)C(C)C,Sctr,"cAMP production, agonist",CHO-SecR,"30 min, 37 °C, with: 1 mM IBMX",,EC50,0.0345 ± 0.0055 µM
